Results pooled from the literature.
Lines come from different studies, so protocols differ. Several values in a cell are separate wells, animals, samples, runs or records.
Target: Histamine H1 receptor (HRH1, Homo sapiens, UniProt P35367)

| Structure (SMILES) | test | test system | setting | scale | quantity | value |
| --- | --- | --- | --- | --- | --- | --- |
| CCO[C@H]1[C@H](O)[C@@H](N)[C@@H](O[C@H]2[C@H](O[C@@H]3O[C@H](CO)[C@@H](O[C@H]4O[C@@H](CN)[C@@H](O)[C@H](O)[C@H]4N)[C@H]3O)[C@@H](O)[C@H](N)C[C@@H]2N)O[C@@H]1CO | radioligand binding |  | 10 µM, 1% DMSO |  | specific binding | 3% |
| CCc1nnc(-c2c(OC)cc(-c3cnc4cc(-c5cnn(C)c5)ccn34)cc2OC)o1 | antagonist radioligand, radioligand binding |  | 10 µM, SafetyScreen44 H1 replicate 2 | lower = stronger displacement | remaining binding | 106% |
| Cc1cc(Nc2nc(C[C@@]3(C(=O)O)CCN(Cc4cccc(Cl)c4F)[C@H](C)C3)cc(C)c2F)[nH]n1 | inhibitor |  | 10 µM |  | inhibition | -1.73% |
| C/C(=N\OCCCN1CCCCC1)c1ccc(C(F)(F)F)cc1 | antagonist, IP-One |  | 10 µM |  | inhibition | 12.6% |
| CS(C)(=O)=Nc1ccc(-c2ccc(-c3nc4cc(O[C@@H]5CO[C@H]6[C@@H]5OC[C@H]6O)[nH]c4cc3F)cc2)cc1 | calcium signal, antagonist |  | 10 µM |  | inhibition | 35% |
| N[C@H](C(=O)N1CCCC1)C1CCN(c2nccc3c(-c4ncc(Cl)cc4Cl)cccc23)CC1 | functional response, agonist |  | 10 µM |  | response | 0% |
| COc1ccc(F)cc1S(=O)(=O)Nc1cnc2c(c1)C(=O)NCCO2 | ligand displacement, radioligand |  | 10 µM |  | inhibition | 4% |
| CCN(CC)CCOc1ccc(-c2nnn(Cc3ccc(OC)cc3)c2N)cc1 | radioligand binding | HEK293 | 10 µM, safety profiling |  | inhibition | 10.8% |
| CCOC(=O)[C@](CC)(CCCSCCOCCOCCNC(=O)c1ccc(-c2c3ccc(=N)c(S(=O)(=O)O)c-3oc3c(S(=O)(=O)O)c(N)ccc23)c(C(=O)O)c1)NC(=O)c1ccc(C2CC2)c(Cc2ccc(F)cc2)n1 | ligand displacement, radioligand |  | 10 µM |  | inhibition | 2% |
| O=C(O)c1ccc(-c2nc(-c3ccccc3Cl)c3sccn23)cc1 | radioligand binding, safety screen panel |  | 10 µM | reference: control | specific binding | 111% and 107% |
| Cc1sc2c(c1C)C(c1ccc(Cl)cc1)=NC(CC(=O)OC(C)(C)C)c1nnc(C)n1-2 (centres unmarked) | specific binding |  | 1 µM |  | inhibition | -5% |
| CN[C@@H]1[C@H](O)[C@H](NC)[C@H]2O[C@]3(O)[C@H](O[C@@H]2[C@H]1O)O[C@H](C)C[C@H]3NC(=O)Cc1cc(Cl)ccn1 | ligand displacement, radioligand |  | 10 µM |  | inhibition | 13% |
| Cc1ccc2c(n1)c(-c1cccc(S(C)(=O)=O)c1)c(C)n2C/C(F)=C/CN | ligand displacement, radioligand |  | 10 µM |  | inhibition | 15% |
| Cc1cc(-c2ccc3ccccc3c2)nnc1NCCN1CCN(C)CC1 | antagonist |  | 10000 nM | reference: control | activity | 0% |

Repeated from above:
| Structure (SMILES) | test | test system | setting | scale | quantity | value |
| --- | --- | --- | --- | --- | --- | --- |
| CCOC(=O)[C@](CC)(CCCSCCOCCOCCNC(=O)c1ccc(-c2c3ccc(=N)c(S(=O)(=O)O)c-3oc3c(S(=O)(=O)O)c(N)ccc23)c(C(=O)O)c1)NC(=O)c1ccc(C2CC2)c(Cc2ccc(F)cc2)n1 | ligand displacement, radioligand |  | 10 µM |  | inhibition | 2% |
| Cc1cc(-c2ccc3ccccc3c2)nnc1NCCN1CCN(C)CC1 | antagonist |  | 10000 nM | reference: control | activity | 0% |
